Experimental data pooled from the literature.
Each line is one published result; not all experiments were run side by side. Numbers after ± are the reported error.
Sequence of UniProt O95983 (whole entry, looked up): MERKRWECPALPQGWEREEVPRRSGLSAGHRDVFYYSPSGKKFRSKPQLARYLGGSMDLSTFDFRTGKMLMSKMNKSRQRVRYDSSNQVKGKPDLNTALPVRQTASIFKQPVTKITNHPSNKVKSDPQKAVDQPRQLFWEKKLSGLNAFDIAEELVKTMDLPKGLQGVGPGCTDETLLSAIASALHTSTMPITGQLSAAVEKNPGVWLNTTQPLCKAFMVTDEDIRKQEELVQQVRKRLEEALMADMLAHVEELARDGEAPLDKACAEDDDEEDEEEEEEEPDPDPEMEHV
Sequence of UniProt Q9UMR5 (whole entry, looked up): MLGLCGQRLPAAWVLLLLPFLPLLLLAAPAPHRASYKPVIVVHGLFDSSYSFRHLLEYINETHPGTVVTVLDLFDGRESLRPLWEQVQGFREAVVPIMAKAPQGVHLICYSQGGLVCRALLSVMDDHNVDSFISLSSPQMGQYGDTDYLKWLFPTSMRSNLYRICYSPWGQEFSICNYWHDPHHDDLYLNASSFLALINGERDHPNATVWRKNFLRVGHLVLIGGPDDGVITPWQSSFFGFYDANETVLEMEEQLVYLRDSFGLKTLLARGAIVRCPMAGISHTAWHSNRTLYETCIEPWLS
Sequence of UniProt Q8IZF5 (whole entry, looked up): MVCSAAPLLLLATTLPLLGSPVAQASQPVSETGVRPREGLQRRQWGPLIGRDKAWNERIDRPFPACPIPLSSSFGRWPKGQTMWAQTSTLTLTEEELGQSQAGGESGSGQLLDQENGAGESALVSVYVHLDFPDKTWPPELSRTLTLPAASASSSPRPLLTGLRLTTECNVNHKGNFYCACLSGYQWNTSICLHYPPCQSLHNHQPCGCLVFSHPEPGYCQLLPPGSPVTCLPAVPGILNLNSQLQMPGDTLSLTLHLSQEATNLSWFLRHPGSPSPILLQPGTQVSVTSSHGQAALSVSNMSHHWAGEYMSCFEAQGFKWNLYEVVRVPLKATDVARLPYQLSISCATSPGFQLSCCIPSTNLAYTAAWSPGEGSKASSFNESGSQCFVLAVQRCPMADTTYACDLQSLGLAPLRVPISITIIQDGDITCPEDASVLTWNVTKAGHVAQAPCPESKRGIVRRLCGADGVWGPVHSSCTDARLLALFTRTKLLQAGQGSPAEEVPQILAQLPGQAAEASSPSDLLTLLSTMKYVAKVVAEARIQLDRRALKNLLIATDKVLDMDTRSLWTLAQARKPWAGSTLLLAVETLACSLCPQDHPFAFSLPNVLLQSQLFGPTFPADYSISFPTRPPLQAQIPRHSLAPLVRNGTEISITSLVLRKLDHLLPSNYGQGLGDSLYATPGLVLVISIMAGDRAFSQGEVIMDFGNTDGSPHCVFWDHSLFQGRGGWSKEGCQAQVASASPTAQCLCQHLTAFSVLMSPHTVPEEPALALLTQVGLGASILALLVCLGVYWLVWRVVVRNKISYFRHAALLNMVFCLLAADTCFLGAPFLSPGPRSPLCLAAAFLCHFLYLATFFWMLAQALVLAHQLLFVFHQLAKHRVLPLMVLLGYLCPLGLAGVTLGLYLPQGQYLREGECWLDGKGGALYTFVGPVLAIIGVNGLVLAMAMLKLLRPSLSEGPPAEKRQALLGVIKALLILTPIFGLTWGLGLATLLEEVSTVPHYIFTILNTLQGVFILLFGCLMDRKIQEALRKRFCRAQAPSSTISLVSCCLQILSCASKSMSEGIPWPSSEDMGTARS
Sequence of UniProt Q9UKI8 (whole entry, looked up): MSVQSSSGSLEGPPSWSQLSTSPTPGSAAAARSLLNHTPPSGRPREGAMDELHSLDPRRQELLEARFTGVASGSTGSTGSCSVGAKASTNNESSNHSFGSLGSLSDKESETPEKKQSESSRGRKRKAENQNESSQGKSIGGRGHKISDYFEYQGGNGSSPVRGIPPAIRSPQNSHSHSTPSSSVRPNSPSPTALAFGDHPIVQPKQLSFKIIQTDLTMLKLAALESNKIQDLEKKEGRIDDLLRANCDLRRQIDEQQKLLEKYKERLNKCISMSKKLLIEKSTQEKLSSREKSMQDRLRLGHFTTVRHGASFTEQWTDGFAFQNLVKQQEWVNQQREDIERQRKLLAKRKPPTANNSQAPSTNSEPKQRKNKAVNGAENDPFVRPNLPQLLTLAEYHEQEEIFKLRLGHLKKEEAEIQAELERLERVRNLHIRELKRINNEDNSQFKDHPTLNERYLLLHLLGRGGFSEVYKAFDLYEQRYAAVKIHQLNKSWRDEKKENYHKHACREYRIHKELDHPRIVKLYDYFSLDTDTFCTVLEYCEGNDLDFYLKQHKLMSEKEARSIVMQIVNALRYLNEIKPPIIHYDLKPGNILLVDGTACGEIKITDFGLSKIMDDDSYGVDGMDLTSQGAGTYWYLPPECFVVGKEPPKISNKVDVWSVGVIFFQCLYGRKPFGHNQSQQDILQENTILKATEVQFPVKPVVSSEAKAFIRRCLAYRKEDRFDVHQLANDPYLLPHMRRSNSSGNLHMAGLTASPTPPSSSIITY
Sequence of UniProt Q9Y6M4 (whole entry, looked up): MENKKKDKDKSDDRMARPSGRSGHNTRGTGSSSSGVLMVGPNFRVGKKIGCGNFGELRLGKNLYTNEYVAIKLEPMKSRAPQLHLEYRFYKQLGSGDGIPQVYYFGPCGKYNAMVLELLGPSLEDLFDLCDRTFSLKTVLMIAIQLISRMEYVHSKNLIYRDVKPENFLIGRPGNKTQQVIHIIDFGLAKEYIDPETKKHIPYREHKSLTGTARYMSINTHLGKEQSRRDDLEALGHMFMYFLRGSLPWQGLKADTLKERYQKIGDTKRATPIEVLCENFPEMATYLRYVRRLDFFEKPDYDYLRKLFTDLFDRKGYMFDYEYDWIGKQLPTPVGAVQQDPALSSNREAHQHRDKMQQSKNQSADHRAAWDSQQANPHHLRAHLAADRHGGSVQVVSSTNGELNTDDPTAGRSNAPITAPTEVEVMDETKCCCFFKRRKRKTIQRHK
Sequence of UniProt Q9GZQ6 (whole entry, looked up): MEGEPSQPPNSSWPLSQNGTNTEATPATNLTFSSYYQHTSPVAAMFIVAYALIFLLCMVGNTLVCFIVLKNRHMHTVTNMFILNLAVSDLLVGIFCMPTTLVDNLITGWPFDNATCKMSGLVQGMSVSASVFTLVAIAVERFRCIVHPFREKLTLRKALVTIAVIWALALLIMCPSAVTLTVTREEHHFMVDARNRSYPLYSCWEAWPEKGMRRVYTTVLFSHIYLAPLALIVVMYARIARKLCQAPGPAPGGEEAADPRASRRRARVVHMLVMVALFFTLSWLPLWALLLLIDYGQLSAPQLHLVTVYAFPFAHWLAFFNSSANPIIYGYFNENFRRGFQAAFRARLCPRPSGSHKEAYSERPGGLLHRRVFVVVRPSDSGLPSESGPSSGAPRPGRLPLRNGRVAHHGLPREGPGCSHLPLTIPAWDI
Sequence of UniProt P25021 (whole entry, looked up): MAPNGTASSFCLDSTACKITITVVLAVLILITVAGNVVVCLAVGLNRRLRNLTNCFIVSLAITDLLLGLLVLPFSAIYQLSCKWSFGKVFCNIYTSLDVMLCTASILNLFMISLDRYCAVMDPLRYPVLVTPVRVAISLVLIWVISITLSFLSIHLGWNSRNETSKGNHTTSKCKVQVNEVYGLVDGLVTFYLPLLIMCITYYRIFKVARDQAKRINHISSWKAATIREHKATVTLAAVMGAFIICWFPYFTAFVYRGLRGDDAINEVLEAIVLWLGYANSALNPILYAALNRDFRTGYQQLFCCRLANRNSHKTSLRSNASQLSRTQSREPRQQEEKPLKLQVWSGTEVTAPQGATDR
Sequence of UniProt Q8NET8 (whole entry, unmodified, looked up): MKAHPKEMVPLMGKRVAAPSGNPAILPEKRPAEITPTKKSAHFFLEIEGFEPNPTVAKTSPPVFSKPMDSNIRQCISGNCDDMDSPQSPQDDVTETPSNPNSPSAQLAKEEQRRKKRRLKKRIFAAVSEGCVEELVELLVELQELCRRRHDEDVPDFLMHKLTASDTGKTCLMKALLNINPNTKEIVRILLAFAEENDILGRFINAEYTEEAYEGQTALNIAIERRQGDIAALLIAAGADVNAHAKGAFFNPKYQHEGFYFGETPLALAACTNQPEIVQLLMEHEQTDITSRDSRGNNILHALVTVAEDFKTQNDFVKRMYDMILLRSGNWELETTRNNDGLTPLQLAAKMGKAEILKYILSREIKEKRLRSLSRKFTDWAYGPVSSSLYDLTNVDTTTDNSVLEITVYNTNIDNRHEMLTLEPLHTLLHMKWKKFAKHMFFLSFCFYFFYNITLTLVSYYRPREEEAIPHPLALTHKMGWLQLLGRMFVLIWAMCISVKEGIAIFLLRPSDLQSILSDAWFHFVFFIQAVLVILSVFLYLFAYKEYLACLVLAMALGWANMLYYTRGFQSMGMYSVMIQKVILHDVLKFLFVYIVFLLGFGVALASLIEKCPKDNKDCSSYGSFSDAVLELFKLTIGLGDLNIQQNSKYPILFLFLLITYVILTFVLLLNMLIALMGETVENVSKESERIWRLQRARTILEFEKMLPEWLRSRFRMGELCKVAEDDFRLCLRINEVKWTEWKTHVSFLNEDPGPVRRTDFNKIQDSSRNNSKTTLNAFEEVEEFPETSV

[2H]c1c([2H])c([C@]2([2H])CCCN2C(=O)C(C)(C)Oc2ccc3cn[nH]c3c2)c([2H])c([2H])c1C([2H])([2H])[2H] — remaining binding (Serine/threonine-protein kinase tousled-like 1 (TLK1, Homo sapiens, UniProt Q9UKI8); KINOMEscan; 1 µM; relative to: DMSO control): 67%
C[C@H]1CN(c2n[nH]c3nc(N[C@H]4CC[C@H](NS(=O)(=O)CCC(F)(F)F)CC4)ncc23)CCO1 — remaining binding (Methyl-CpG-binding domain protein 3 (MBD3, Homo sapiens, UniProt O95983); Kinobeads competition, measured: MBD3; 0.8 µM, unit not given; relative to: vehicle): 1.24
C[C@@H](O)[C@@H](CO)NC(=O)[C@@H](CCCNC(=N)N)NC(=O)[C@@H]1CCCN1C(=O)[C@@H]1CSSC[C@H](NC(=O)[C@H](Cc2ccccc2)NC(=O)CN2CCN(CC(=O)O)CCN(CC(=O)O)CCN(CC(=O)O)CC2)C(=O)N[C@@H](Cc2ccc(O)cc2)C(=O)N[C@@H](Cc2ccccc2)C(=O)N[C@@H](CCC(N)=O)C(=O)N[C@@H](CC(N)=O)C(=O)N1 [gallium-68 labelled] — tissue uptake (healthy Wistar rat, adrenals; intravenous, 8 MBq, 30 min, individual animals): 0.47 %ID/g
CC[C@H](C)[C@H](NC(=O)CNC(=O)[C@@H](N)CCCCN)C(=O)N[C@@H](CC(C)C)C(=O)N[C@@H](CCCCN)C(=O)N[C@@H](CCCNC(=N)N)C(=O)N[C@@H](CCC(=O)O)C(=O)N[C@@H](CCCCN)C(=O)N[C@@H](CCCNC(=N)N)C(=O)N[C@@H](CC(C)C)C(=O)N[C@@H](CCCNC(=N)N)C(=O)N[C@@H](CCCNC(=N)N)C(=O)N[C@@H](CCCCN)C(=O)N[C@@H](CC(N)=O)C(=O)N[C@H](C(=O)N[C@@H](Cc1c[nH]cn1)C(=O)N[C@@H](Cc1c[nH]c2ccccc12)C(=O)N1CCC[C@H]1C(=O)N[C@@H](CCC(=O)O)C(=O)N[C@@H](CCC(=O)O)C(=O)NCC(=O)N[C@@H](CCCCN)C(=O)N[C@@H](CC(C)C)C(=O)N[C@@H](CCCNC(=N)N)C(=O)N[C@@H](CCC(=O)O)C(=O)N[C@@H](Cc1ccccc1)C(=O)N[C@@H](Cc1ccccc1)C(=O)N[C@@H](Cc1ccccc1)C(=O)N[C@@H](Cc1ccccc1)C(=O)N[C@@H](CCC(=O)O)C(=O)N[C@@H](CC(C)C)C(=O)N[C@@H](CC(=O)O)C(=O)N[C@@H](CCC(=O)O)C(=O)N[C@@H](C)C(=O)N[C@@H](CCC(=O)O)C(=O)N[C@@H](CCCNC(=N)N)C(=O)N[C@H](C(=O)N[C@@H](CC(N)=O)C(=O)N[C@H](C(=O)O)C(C)C)C(C)C)C(C)C — log2 fold change (HeLa and HEK-293T cells; phosphatase bead binding, competitive inhibitor, PIB pulldown iBAQ LC-MS/MS, measured: PPP4R2; concentration not given; relative to: untreated control): 0.02
CN1CCN(c2cc(-c3ccncc3)c(-c3ccc4ccccc4c3)nn2)CC1 — activation (Histamine H2 receptor (HRH2, Homo sapiens, UniProt P25021); agonist, FLIPR; 12.5 µM): -1%
COc1cc2c(Oc3ccc4[nH]c(C)cc4c3F)ccnc2cc1OCC1(N)CC1 — grade 3 Hematochezia (paediatric recurrent refractory sarcoma; 8 mg): 0%
CO[C@H]1C[C@@H]2CC[C@@H](C)[C@@](O)(O2)C(=O)C(=O)N2CCCC[C@H]2C(=O)O[C@H]([C@H](C)C[C@@H]2CC[C@@H](OC(=O)NCCOCCOCCOCCOCCOCCOCCOCCOCCC(=O)N3CCc4cc(Cn5nc(-c6ccc7oc(N)nc7c6)c6c(N)ncnc65)ccc4C3)[C@H](OC)C2)C[C@@H](O)[C@H](C)/C=C(\C)[C@@H](O)[C@@H](OC)C(=O)[C@H](C)C[C@H](C)/C=C/C=C/C=C/1C — any TEAE incidence (phase 1 dose escalation; advanced solid tumour patients; intravenous, 6 mg weekly, grade ≥3): 66.7%
Oc1ccc2c3c1O[C@H]1[C@@H](O)CC[C@@]4(O)[C@@H](C2)N(CC2CCC2)CC[C@]314 — log2 fold change (Adhesion G-protein coupled receptor F3 (ADGRF3, Homo sapiens, UniProt Q8IZF5); β-arrestin recruitment, TANGO luminescence, measured: GPR113; concentration not given; relative to: basal luminescence): 0.521
COc1ccc(N2C(=O)N(c3c(C)cccc3Cl)Cc3cnc(Nc4ccc(C5CCN(C)CC5)cc4OC)nc32)nc1 — inhibition (Casein kinase I isoform gamma-3 (CSNK1G3, Homo sapiens, UniProt Q9Y6M4); kinase activity, inhibitor; 0.5 µM, kinase CK1-GAMMA3): 0.92%
O=C(c1ccc(Cl)cc1)N1CCN2C(=O)N(OC(=O)N3CCOc4ccccc43)C(=O)C2C1 (stereo not shown) — mean protein ratio (PPT2 (Homo sapiens, UniProt Q9UMR5); MS-based ABPP; SW-620 conditioned medium; 10 µM, 1 h, 37 °C; relative to: compound over DMSO, lower = more inhibition): 0.4
CC[C@H](C)[C@H](NC(=O)[C@H](Cc1ccccc1)NC(=O)[C@H](CCC(=O)O)NC(=O)[C@H](CCCNC(=N)N)NC(=O)[C@H](C)NC(=O)[C@H](C)NC(=O)[C@H](CCC(N)=O)NC(=O)[C@H](CCC(=O)O)NC(=O)[C@H](CCC(=O)O)NC(=O)[C@H](CC(C)C)NC(=O)[C@H](Cc1ccc(O)cc1)NC(=O)[C@H](CO)NC(=O)[C@H](CO)NC(=O)[C@@H](NC(=O)[C@H](CC(=O)O)NC(=O)[C@H](CO)NC(=O)[C@@H](NC(=O)[C@H](Cc1ccccc1)NC(=O)[C@@H](NC(=O)CNC(=O)[C@H](CCC(=O)O)NC(=O)[C@H](C)NC(=O)CCc1c[nH]cn1)[C@@H](C)O)[C@@H](C)O)C(C)C)C(=O)N[C@@H](C)C(=O)N[C@@H](Cc1c[nH]c2ccccc12)C(=O)N[C@@H](CC(C)C)C(=O)N[C@H](C(=O)N[C@@H](CCCNC(=N)N)C(=O)NCC(=O)N[C@@H](CCCNC(=N)N)C(=O)N[C@@H](CCCCNC(=O)COCCOCCNC(=O)COCCOCCNC(=O)CC[C@H](NC(=O)CCCCCCCCCCCCCCCCC(=O)O)C(=O)O)C(=O)NCC(=O)NCC(=O)N[C@@H](CO)C(=O)N[C@@H](CCCCNc1c(NCCCCCN(O)C(=O)CCC(=O)NCCCCCN(O)C(=O)CCC(=O)NCCCCCN(O)C(C)=O)c(=O)c1=O)C(=O)O)C(C)C [zirconium-89 labelled] — tissue uptake (rat, femur; intravenous, 3 nmol/kg, 4 h): 0.17 %ID/g
CCCc1cc(O)c2c(c1)OC(C)(C)[C@@H]1CCC(C)=C[C@@H]21 — Hill coefficient (Transient receptor potential cation channel subfamily V member 3 (TRPV3, Homo sapiens, UniProt Q8NET8, A560L); calcium uptake, agonist; HEK293S; mutant A560L, site 1): 1.95 ± 0.18
COc1cc(N)c(Cl)cc1C(=O)NC1CN2CCC1CC2 (stereo not shown) — log2 fold change (Neuropeptide FF receptor 1 (NPFFR1, Homo sapiens, UniProt Q9GZQ6); β-arrestin recruitment, TANGO luminescence, measured: NPFF1; concentration not given; relative to: basal luminescence): -0.063

For quick reference, copied from above:
COc1ccc(N2C(=O)N(c3c(C)cccc3Cl)Cc3cnc(Nc4ccc(C5CCN(C)CC5)cc4OC)nc32)nc1 — inhibition (Casein kinase I isoform gamma-3 (CSNK1G3, Homo sapiens, UniProt Q9Y6M4); kinase activity, inhibitor; 0.5 µM, kinase CK1-GAMMA3): 0.92%
O=C(c1ccc(Cl)cc1)N1CCN2C(=O)N(OC(=O)N3CCOc4ccccc43)C(=O)C2C1 (stereo not shown) — mean protein ratio (PPT2 (Homo sapiens, UniProt Q9UMR5); MS-based ABPP; SW-620 conditioned medium; 10 µM, 1 h, 37 °C; relative to: compound over DMSO, lower = more inhibition): 0.4
